# Results of several laboratories.
# Protocols differ between the studies behind these lines.
# Organism: Escherichia coli
Structure (SMILES),test,system,conditions,scale,MIC
CC[C@H](C)[C@H](NC(=O)CNC(=O)[C@H](CCC(=O)O)NC(=O)[C@H](CO)NC(=O)[C@@H](NC(=O)[C@H](CCCNC(=N)N)NC(=O)[C@H](CCCCN)NC(=O)[C@H](CCCCN)NC(=O)[C@H](C)NC(=O)[C@H](CO)NC(=O)[C@H](CC(N)=O)NC(=O)[C@H](CCC(=O)O)NC(=O)[C@H](CC(C)C)NC(=O)[C@H](CCCCN)NC(=O)[C@H](CCCCN)NC(=O)[C@H](C)NC(=O)[C@@H](NC(=O)[C@H](CCCCN)NC(=O)[C@H](CO)NC(=O)[C@H](CC(C)C)NC(=O)[C@H](Cc1c[nH]c2ccccc12)NC(=O)[C@@H](N)CO)[C@@H](C)O)[C@@H](C)CC)C(=O)N[C@@H](C)C(=O)N[C@H](C(=O)N[C@@H](C)C(=O)N[C@H](C(=O)N[C@@H](CCC(N)=O)C(=O)NCC(=O)NCC(=O)N1CCC[C@H]1C(=O)N[C@@H](CCCNC(=N)N)C(=O)O)[C@@H](C)CC)[C@@H](C)CC,broth dilution,K12 BW25113,"18 h, 37 °C",,0.8 µM
CC(C)C[C@H](NC(=O)[C@H](CCCCN)NC(=O)[C@H](CCCCN)NC(=O)[C@H](CCCNC(=N)N)NC(=O)[C@H](Cc1ccccc1)NC(=O)[C@H](CCCNC(=N)N)NC(=O)[C@H](CCCCN)NC(=O)[C@H](Cc1ccccc1)NC(=O)[C@H](CCCNC(=N)N)NC(=O)CN)C(=O)O,,TG1,,,> 25 µM
CC[C@H](C)[C@H](NC(=O)[C@H](CC(C)C)NC(=O)[C@H](CCCCN)NC(=O)[C@@H](NC(=O)[C@H](C)NC(=O)[C@H](CCC(=O)O)NC(=O)[C@H](Cc1c[nH]cn1)NC(=O)[C@@H](NC(=O)[C@H](CCCCN)NC(=O)[C@H](CCC(N)=O)NC(=O)[C@H](Cc1ccccc1)NC(=O)[C@@H](N)C(C)C)[C@@H](C)CC)[C@@H](C)CC)C(N)=O,CLSI broth microdilution,ATCC 25922,"18 h, 37 °C",,> 128 µM
CC1(C)CC[C@]2(C(=O)O)CC[C@]3(C)C(=CC[C@@H]4[C@@]5(C)CC[C@H](O)C(C)(C)[C@@H]5CC[C@]43C)[C@@H]2C1,,BL21 pET28a-VIM-1,,,512 µg/mL
CC[C@H](C)[C@H](NC(=O)[C@H](CCCCN)NC(=O)[C@H](CCCCN)NC(=O)[C@H](Cc1ccccc1)NC(=O)[C@@H](NC(=O)[C@@H](NC(=O)[C@H](CCCNC(=N)N)NC(=O)[C@H](Cc1ccccc1)NC(=O)[C@@H](NC(=O)[C@H](CCCCN)NC(=O)[C@H](CCCCN)NC(=O)[C@@H](N)CCSC)[C@@H](C)CC)C(C)C)[C@@H](C)CC)C(=O)N[C@@H](CC(C)C)C(=O)N[C@@H](CCCCN)C(=O)N[C@@H](CCCNC(=N)N)C(=O)N[C@@H](CC(C)C)C(=O)N[C@H](C(=O)N[C@H](C(=O)O)C(C)C)[C@@H](C)CC,,ATCC 25922,16 to 18 h,,8 µg/mL
O=[N+]([O-])[O-].O=[N+]([O-])[O-].O=[N+]([O-])[O-].[Ga+3],broth dilution,DH5α,"22 to 24 h, 37 °C",,128 µg/mL
CC[C@H](C)[C@H](NC(=O)[C@H](CCCCN)NC(=O)[C@@H]1CCCN1C(=O)[C@H](CCCNC(=N)N)NC(=O)[C@H](Cc1ccc(O)cc1)NC(=O)[C@H](CCCNC(=N)N)NC(=O)[C@H](CCCNC(=N)N)NC(=O)[C@@H](NC(=O)[C@H](CCCNC(=N)N)NC(=O)[C@H](CCCNC(=N)N)NC(=O)[C@H](CC(C)C)NC(=O)[C@H](Cc1ccccc1)NC(=O)[C@H](CCCNC(=N)N)NC(=O)[C@H](CO)NC(=O)[C@H](Cc1ccccc1)NC(=O)[C@@H](N)CCCNC(=N)N)C(C)C)C(=O)N[C@@H](CO)C(=O)N[C@@H](Cc1ccccc1)C(=O)N[C@@H](CC(N)=O)C(=O)N[C@@H](CC(C)C)C(=O)N[C@@H](CCC(=O)O)C(=O)N1CCC[C@H]1C(=O)N[C@@H](Cc1ccccc1)C(=O)N[C@@H](Cc1ccccc1)C(=O)N[C@@H](CCCCN)C(=O)N[C@@H](Cc1ccccc1)C(=O)O,broth microdilution,"K88, Mueller-Hinton broth",37 °C,,1.27 µM
CC(C)C[C@H](NC(=O)[C@H](CCCCN)NC(=O)[C@H](CC(C)C)NC(=O)[C@H](CCCCN)NC(=O)[C@H](CC(C)C)NC(=O)[C@H](CCCCN)NC(=O)CNC(=O)[C@H]1CCCN1C(=O)[C@H](CCCCN)NC(=O)[C@H](CC(C)C)NC(=O)[C@H](CCCCN)NC(=O)[C@H](CC(C)C)NC(=O)[C@H](CCCCN)NC(=O)[C@@H](N)CC(C)C)C(N)=O,broth microdilution,"ATCC 25922, Mueller-Hinton broth","18 h, 37 °C",,4 µM
CC[C@H](C)[C@H](NC(=O)CNC(=O)[C@H](CC(=O)O)NC(=O)[C@H](CCCNC(=N)N)NC(=O)[C@@H](NC(=O)[C@H](CC(N)=O)NC(=O)[C@H](CCCNC(=N)N)NC(=O)CNC(=O)[C@@H](NC(=O)[C@H](CCCCN)NC(=O)[C@H](CCC(=O)O)NC(=O)[C@@H](NC(=O)[C@H](CCCCN)NC(=O)[C@H](CCCCN)NC(=O)[C@H](Cc1ccccc1)NC(=O)[C@@H](NC(=O)[C@H](CCCCN)NC(=O)[C@H](Cc1c[nH]c2ccccc12)NC(=O)[C@@H](N)CCCNC(=N)N)[C@@H](C)CC)[C@@H](C)CC)C(C)C)C(C)C)C(=O)N[C@H](C(=O)N[C@@H](CCCCN)C(=O)N[C@@H](C)C(=O)NCC(=O)NCC(=O)N[C@@H](C)C(=O)N[C@H](C(=O)N[C@@H](C)C(=O)N[C@H](C(=O)N[C@H](C(=O)NCC(=O)N[C@@H](CCC(N)=O)C(=O)N[C@@H](C)C(=O)N[C@@H](C)C(=O)N[C@H](C(=O)N[C@H](C(=O)N[C@H](C(=O)N[C@@H](CCCCN)C(N)=O)C(C)C)C(C)C)[C@@H](C)O)C(C)C)C(C)C)C(C)C)[C@@H](C)CC,,"K1 ATCC 700973, Mueller-Hinton broth","16 h, 37 °C",growth inhibition over 99%,1 µM
C[C@H]1COc2c(N3CCN(C)CC3)c(F)cc3c(=O)c(C(=O)O)cn1c23,agar dilution,08-85 mcr-1,,,16 µg/mL
CC[C@H](C)[C@H](NC(=O)CNC(=O)[C@H](CC(=O)O)NC(=O)[C@H](CCCNC(=N)N)NC(=O)[C@@H](NC(=O)[C@H](CC(N)=O)NC(=O)[C@H](CCCNC(=N)N)NC(=O)CNC(=O)[C@@H](NC(=O)[C@H](CCCCN)NC(=O)[C@H](CCC(=O)O)NC(=O)[C@@H](NC(=O)[C@H](CCCCN)NC(=O)[C@H](CCC(=O)O)NC(=O)[C@H](Cc1ccccc1)NC(=O)[C@@H](NC(=O)[C@H](CCCCN)NC(=O)[C@H](Cc1c[nH]c2ccccc12)NC(=O)[C@@H](N)CCCNC(=N)N)[C@@H](C)CC)[C@@H](C)CC)C(C)C)C(C)C)C(=O)N[C@H](C(=O)N[C@@H](CCCCN)C(=O)N[C@@H](C)C(=O)NCC(=O)N1CCC[C@H]1C(=O)N[C@@H](C)C(=O)N[C@H](C(=O)N[C@@H](C)C(=O)N[C@H](C(=O)N[C@H](C(=O)NCC(=O)N[C@@H](CCC(N)=O)C(=O)N[C@@H](C)C(=O)N[C@@H](C)C(=O)N[C@H](C(=O)N[C@H](C(=O)N[C@H](C(=O)N[C@@H](CCCCN)C(N)=O)C(C)C)C(C)C)[C@@H](C)O)C(C)C)C(C)C)C(C)C)[C@@H](C)CC,,"KCTC 1682, Mueller-Hinton broth","16 h, 37 °C",growth inhibition over 99%,16 µM
CN(C)c1cc(NC(=O)CNC(C)(C)C)c(O)c2c1C[C@H]1C[C@H]3[C@H](N(C)C)C(O)=C(C(N)=O)C(=O)[C@@]3(O)C(O)=C1C2=O,,DH5a clone with KPC-100,,,0.125 µg/mL
CC[C@H](C)[C@H](N)C(=O)N[C@@H](CC(C)C)C(=O)NCC(=O)N[C@@H](CCC(=O)O)C(=O)N[C@H](C(=O)N[C@@H](Cc1c[nH]c2ccccc12)C(=O)N[C@@H](CCCCN)C(=O)NCC(=O)N[C@H](C(=O)N[C@@H](CCCCN)C(=O)N[C@@H](CC(=O)O)C(=O)N[C@H](C(=O)N[C@@H](CC(C)C)C(N)=O)[C@@H](C)CC)[C@@H](C)CC)[C@@H](C)CC,broth microdilution,ATCC 25922,"concentration not given, together with: BSA",,100 µM
CC[C@H](C)[C@H](N)C(=O)N[C@@H](CCCNC(=N)N)C(=O)N[C@H](C(=O)N[C@@H](Cc1c[nH]c2ccccc12)C(=O)N[C@@H](Cc1ccccc1)C(=O)N[C@H](C(=O)N[C@@H](CCCCN)C(=O)N[C@H](C(=O)N[C@@H](CCCNC(=N)N)C(=O)N[C@@H](CCCCN)C(=O)N[C@@H](Cc1c[nH]c2ccccc12)C(=O)N[C@@H](CCCCN)C(=O)N[C@@H](C)C(=O)N[C@H](C(=O)N[C@@H](Cc1ccc(O)cc1)C(=O)N[C@@H](Cc1c[nH]cn1)C(=O)N[C@H](C(N)=O)[C@@H](C)O)[C@@H](C)CC)C(C)C)[C@@H](C)CC)C(C)C,broth dilution,"ATCC 25922, Mueller-Hinton broth","24 h, 37 °C",,50 µM
